Measured values gathered from unrelated publications.
Each numbered part is a random draw from the data of one study; scales do not carry over between parts. Values joined by “and” are separate records of one study, mostly repeats; a detail may differ.
Chain of UniProt Q16644 (whole entry, looked up): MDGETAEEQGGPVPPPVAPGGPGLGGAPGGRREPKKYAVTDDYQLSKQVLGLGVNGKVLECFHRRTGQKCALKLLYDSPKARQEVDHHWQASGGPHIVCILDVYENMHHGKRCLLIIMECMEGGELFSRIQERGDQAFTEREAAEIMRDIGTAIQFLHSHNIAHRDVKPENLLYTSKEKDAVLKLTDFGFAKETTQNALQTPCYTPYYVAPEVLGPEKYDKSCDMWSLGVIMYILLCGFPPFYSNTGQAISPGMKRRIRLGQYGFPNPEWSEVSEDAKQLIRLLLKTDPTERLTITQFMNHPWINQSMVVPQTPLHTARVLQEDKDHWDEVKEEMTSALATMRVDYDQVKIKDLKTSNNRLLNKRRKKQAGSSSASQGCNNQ
Chain of UniProt Q9UK32 (whole entry, looked up): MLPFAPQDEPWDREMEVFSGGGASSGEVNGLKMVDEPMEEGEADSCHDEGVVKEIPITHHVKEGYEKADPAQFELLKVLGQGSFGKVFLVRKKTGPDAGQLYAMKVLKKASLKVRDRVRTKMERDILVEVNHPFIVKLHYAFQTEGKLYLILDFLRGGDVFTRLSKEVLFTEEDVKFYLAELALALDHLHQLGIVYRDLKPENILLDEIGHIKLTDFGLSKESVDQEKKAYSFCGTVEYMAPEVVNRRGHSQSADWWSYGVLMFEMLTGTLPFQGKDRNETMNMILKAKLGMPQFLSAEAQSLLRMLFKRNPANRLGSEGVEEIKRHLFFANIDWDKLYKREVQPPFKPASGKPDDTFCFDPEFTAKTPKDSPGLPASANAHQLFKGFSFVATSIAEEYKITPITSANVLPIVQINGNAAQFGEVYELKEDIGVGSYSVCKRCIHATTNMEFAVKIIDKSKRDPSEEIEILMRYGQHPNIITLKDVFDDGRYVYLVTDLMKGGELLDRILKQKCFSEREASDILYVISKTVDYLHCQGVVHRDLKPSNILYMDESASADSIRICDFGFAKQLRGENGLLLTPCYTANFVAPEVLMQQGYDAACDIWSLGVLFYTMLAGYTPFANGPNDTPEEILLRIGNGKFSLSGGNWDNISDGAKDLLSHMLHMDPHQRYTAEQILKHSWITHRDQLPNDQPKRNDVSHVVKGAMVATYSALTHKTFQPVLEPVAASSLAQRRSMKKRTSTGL
Chain of UniProt O95819 (whole entry, looked up): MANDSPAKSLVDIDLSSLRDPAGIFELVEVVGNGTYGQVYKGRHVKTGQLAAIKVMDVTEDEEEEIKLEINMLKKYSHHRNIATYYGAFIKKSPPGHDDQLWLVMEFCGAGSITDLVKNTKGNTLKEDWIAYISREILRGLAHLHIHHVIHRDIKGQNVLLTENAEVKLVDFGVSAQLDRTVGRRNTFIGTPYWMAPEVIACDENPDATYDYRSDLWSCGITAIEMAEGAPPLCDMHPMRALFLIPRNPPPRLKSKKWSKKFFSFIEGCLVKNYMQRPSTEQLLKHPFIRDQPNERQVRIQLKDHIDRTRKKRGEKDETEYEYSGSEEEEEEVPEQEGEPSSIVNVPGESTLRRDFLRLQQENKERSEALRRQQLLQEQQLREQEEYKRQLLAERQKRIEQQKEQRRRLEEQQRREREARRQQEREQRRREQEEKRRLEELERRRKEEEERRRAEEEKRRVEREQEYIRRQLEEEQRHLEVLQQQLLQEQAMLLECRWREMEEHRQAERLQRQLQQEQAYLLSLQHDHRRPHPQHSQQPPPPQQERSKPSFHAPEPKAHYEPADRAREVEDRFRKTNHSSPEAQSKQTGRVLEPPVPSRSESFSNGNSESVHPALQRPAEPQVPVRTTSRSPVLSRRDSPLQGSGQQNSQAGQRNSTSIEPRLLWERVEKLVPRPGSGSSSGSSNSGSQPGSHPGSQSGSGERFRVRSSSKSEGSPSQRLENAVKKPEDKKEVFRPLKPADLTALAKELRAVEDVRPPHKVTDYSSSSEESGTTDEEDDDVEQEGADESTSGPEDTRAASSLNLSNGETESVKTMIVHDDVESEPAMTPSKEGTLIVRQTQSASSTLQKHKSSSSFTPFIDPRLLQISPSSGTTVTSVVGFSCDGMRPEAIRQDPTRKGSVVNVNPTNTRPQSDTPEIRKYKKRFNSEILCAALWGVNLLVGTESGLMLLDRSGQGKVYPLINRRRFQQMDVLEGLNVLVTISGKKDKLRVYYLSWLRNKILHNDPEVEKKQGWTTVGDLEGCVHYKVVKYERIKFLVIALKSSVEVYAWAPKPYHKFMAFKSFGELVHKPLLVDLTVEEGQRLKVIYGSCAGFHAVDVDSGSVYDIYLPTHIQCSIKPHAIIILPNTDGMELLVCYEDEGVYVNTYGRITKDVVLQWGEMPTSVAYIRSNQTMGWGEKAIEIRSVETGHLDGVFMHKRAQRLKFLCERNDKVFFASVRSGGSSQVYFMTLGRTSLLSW
Chain of UniProt Q9UEE5 (whole entry, looked up): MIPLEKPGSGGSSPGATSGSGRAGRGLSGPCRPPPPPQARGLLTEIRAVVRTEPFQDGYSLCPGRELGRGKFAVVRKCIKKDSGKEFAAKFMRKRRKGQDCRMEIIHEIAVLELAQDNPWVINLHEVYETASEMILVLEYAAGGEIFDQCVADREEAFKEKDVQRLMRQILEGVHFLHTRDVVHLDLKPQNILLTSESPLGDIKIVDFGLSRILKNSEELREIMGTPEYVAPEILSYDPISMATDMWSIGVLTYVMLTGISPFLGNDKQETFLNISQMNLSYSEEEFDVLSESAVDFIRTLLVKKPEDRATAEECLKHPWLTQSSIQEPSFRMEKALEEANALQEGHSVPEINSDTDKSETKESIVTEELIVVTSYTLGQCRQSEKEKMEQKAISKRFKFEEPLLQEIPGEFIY
Chain of UniProt P54764 (whole entry, looked up): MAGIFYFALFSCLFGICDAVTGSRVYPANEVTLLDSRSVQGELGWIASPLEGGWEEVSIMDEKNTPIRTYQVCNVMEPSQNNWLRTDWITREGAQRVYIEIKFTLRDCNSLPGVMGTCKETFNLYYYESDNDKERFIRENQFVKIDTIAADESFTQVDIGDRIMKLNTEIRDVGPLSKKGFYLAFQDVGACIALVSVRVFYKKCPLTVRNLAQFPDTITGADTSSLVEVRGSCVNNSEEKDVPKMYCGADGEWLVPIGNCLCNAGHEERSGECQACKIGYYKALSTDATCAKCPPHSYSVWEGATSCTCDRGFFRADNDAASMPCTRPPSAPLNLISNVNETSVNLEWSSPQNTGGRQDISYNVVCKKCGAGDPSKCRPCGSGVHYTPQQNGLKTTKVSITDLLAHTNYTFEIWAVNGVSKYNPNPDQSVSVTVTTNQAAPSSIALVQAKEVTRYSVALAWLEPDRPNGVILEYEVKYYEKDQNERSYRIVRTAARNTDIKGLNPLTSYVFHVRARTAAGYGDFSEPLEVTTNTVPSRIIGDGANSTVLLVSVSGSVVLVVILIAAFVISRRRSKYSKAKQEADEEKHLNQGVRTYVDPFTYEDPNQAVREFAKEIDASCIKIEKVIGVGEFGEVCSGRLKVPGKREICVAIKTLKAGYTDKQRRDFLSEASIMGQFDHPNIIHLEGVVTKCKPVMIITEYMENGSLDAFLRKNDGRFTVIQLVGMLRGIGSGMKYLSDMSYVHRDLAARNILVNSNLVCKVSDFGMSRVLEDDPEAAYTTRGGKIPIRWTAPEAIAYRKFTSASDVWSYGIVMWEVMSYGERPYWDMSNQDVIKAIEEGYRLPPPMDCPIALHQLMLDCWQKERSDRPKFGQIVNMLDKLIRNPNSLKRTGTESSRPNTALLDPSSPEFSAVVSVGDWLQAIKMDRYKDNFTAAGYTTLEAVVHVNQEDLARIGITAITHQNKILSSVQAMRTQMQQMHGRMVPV

Sample 1 — Structure (SMILES): Cc1ccc(O)cc1Nc1ccnc2cc(-c3ccccn3)ccc12; cell line: L929; method: CCK-8
read-out | tested at | with | viability
necroptosis protection | 0.00229 µM | TNF-α-induced | 13.5%
– | 3.125 µM | – | 45.8% and 49.3% and 48.7% and 35.8%
necroptosis protection | 0.556 µM | TNF-α-induced | 41.9%
necroptosis protection | 0.021 µM | TNF-α-induced | 16%
necroptosis protection | 15 µM | TNF-α-induced | 53%
necroptosis protection | 2.5 µM | TNF-α-induced | 60.5%
necroptosis protection | 0.185 µM | TNF-α-induced | 24%
necroptosis protection | 0.062 µM | TNF-α-induced | 16.2%
necroptosis protection | 0.625 µM | TNF-α-induced | 58%

Sample 2 — read-out: ligand displacement; tested at: 10 µM
Target: Muscarinic acetylcholine receptor M1 (CHRM1, Homo sapiens, UniProt P11229)
Chain of UniProt P11229 (whole entry, looked up): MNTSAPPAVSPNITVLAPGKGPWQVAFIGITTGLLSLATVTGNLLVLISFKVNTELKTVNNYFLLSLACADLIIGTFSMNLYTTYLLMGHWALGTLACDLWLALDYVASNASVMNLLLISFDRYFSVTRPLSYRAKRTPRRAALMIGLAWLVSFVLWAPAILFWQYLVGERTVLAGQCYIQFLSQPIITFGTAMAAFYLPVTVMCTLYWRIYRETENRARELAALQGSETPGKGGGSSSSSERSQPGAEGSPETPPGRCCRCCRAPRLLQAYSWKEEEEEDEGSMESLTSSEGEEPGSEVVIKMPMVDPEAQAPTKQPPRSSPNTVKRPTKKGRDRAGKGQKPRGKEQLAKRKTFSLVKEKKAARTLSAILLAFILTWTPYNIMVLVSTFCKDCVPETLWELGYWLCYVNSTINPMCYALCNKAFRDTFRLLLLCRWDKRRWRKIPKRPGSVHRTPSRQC
Compound | inhibition [%]
O=C1NC(c2ccccn2)Sc2ccccc21 (stereo not drawn) | -11.6
CNC(=N)NCCC[C@H](NC(=O)[C@H](CC(C)C)NC(=O)NNC(=O)[C@H](Cc1ccccc1)NC(=O)[C@H](CO)NC(=O)[C@H](CC(N)=O)NC(=O)[C@@H](Cc1ccncc1)NC(=O)[C@H](N)Cc1ccc(O)cc1)C(=O)N[C@@H](Cc1ccccc1)C(N)=O | 2.17
O=C(NS(=O)(=O)c1ccc(NCC2CCOCC2)c([N+](=O)[O-])c1)c1ccc(N2CCN(Cc3ccc(C(F)(F)F)cc3-c3ccc(Cl)cc3)CC2)cc1Oc1cnc2[nH]ccc2c1 | -6.07
CCC(=NO)C(C)=Cc1ccc(F)c(C)c1 | -2.46
CN1CCN(c2ccnc(NCCc3ccccc3)n2)CC1 | 18.6
CC(=O)Nc1ncc(CN2CCC[C@H](Cc3cc(C)nc(C)c3)C2)s1 | 6.18

Sample 3 — read-out: enzyme activity; mode: inhibitor; tested at: 0.5 µM; relative to: control
Compound: COc1ccc2c(c[n+](C)c3c4cc5c(cc4ccc23)OCO5)c1OC
target | remaining activity [%]
STK17A (Homo sapiens, UniProt Q9UEE5) | 104
RPS6KA6 (Homo sapiens, UniProt Q9UK32) | 91.1
MAPKAPK3 (Homo sapiens, UniProt Q16644) | 83
EPHA4 (Homo sapiens, UniProt P54764) | 103
MAP4K4 (Homo sapiens, UniProt O95819) | 84.9

Further values, each from its own experiment
Compound | species | route | dose | notes | measurement | result
COc1ccc(-c2c(Nc3ccccn3)[nH]c3c(C4=CCCCC4)c(-c4ccccc4)nn3c2=O)cc1 | patients with advanced malignancies | oral | dose not given | treatment-emergent adverse events | grade 3 pancreatitis incidence | 5%

Excerpt of the above (sample 1):
read-out | tested at | with | viability
– | 3.125 µM | – | 45.8% and 49.3% and 48.7% and 35.8%
